Measured values pooled from the literature.
Protocols differ between the studies behind these lines. ± gives the spread as reported.
Technique: steady-state kinetics
B1: ybiA (Escherichia coli, UniProt P30176); chain MPVRAQRIQHVMQDTIINFYSTSDDYGDFSNFAAWPIKVDGKTWPTSEHYFQAQKFLDEKYREEIRRVSSPMVAARMGRDRSKPLRKNWESVKEQVMRKALRAKFEQHAELRALLLATAPAKLVEHTENDAYWGDGGHGKGKNRLGYLLMELREQLAIEK
B2: enzyme A178R/D177A/G159A/M179S/P184R (Levilactobacillus brevis, UniProt Q03Q85); chain MKVTVVGCTHAGTFAIKQILAEHPDAEVTVYERNDVISFLSCGIALYLGGKVADPQGLFYSSPEELQKLGANVQMNHNVLAIDPDQKTVTVEDLTNHAQTTESYDKLVMTSGSWPIVPKIPGIDSDRVKLCKNWAHAQALIEDAKEAKRITVIGAGYIAAELAEAYSTTGHDVTLIARSARVMRKYFDADFTDVIEQDYRDHGVQLALGETVESFTDSATGLTIKTDKNSYETDLAILCIGFRPNTDLLKGKVDMAPNGAIITDDYMRSSNPDIFAAGDSAAVHYNPTHQNAYIPLATNAVRQGILVGKNLVKPTVKYMGTQSSSGLALYDRTIVSTGLTLAAAKQQGLNAEQVIVEDNYRPEFMPSTEPVLMSLVFDPDTHRILGGALMSKYDVSQSANTLSVCIQNENTIDDLAMVDMLFQPNFDRPFNYLNILAQAAQAKVAQSVNA
B3: estF (Pseudomonas fluorescens, UniProt P22862); chain STFVAKDGTQIYFKDWGSGKPVLFSHGWLLDADMWEYQMEYLSSRGYRTIAFDRRGFGRSDQPWTGNDYDTFADDIAQLIEHLDLKEVTLVGFSMGGGDVARYIARHGSARVAGLVLLGAVTPLFGQKPDYPQGVPLDVFARFKTELLKDRAQFISDFNAPFYGINKGQVVSQGVQTQTLQIALLASLKATVDCVTAFAETDFRPDMAKIDVPTLVIHGDGDQIVPFETTGKVAAELIKGAELKVYKDAPHGFAVTHAQQLNEDLLAFLKR
B4: protein (Actinidia deliciosa, UniProt C7SHN9); chain MEPLLFSIQTLVHQVKQEIFSSTFDLYSFVSPSAYDTAWLAMIPHPKQNSCPKFKGCLDWILDNQKEAGYWGECDHDGLPTIDSLPATLACMVALKTWGVSEKHINKGLAFIHANSTTLLKEKYDHLPRWFVIVFPAMVEVAQAAGLKVLFSNGLEEVVLNISLEREKILEREEFVDKYHYPPLASYLEALPPSYTIDRKDITMNLSGDGSCFQSPSATARAFLATGNQKCMAYLESLVQKRPGGVPTMYPMDGELVSLCLVNQIQRLGLAEHFTEEIEENLKLIYENYKNQESREMKDSYLVPTKIYKDSLAFRLLRMHGYNVTPRRFCWFLYQEDIRVHIEKNYECFTSALYNVYRATDLMFSGEYELEEARVFSRKLLEKSMKLKSLNDNLVNFPSFRSVIDHELSVPWIARLEHLDHRMWIEENKVDTLWIGKASFYRLRALNDKLMTLAVESYKFRQSFYRNELEELKRWSKDWGLTDLGFGRKKTTYCYYAIAASSSLPHNSMVRLIVAKSAILVTIADDFFDMEGSLEDLQSLTQAVQRWDGNSLSGHGKIIFCALDNLVSDIAKPHLHLEGSHVAENVKNMWSETIASWLTETTWSHTGYVPSLDEYLQTGKISVASQLMTVPALCFLSPNVHPICKLEANHYQIITKLLMVSTRLLNDTQTYEKELKDGKRNFVILHSKGSPQTGIEKSVAFVKEILDQIEKEFLEHTLMDGHNDLPKPCKHLHLSILRAFHMFYNSGDLFDSDTGLLHDINKAFYVPL
B5: sacB Y421F (Priestia megaterium, UniProt D5DC07); chain KGNDSKDFNNSYGISHITRDNMVKIPQQQNSDQFKVPAFDESTIKNIASAKGKNASGNTIDLDVWDSWPLQNADGTVATYHGYQIVFALAGDPKDSNDTSVYLFYKKAGDKSIDSWKNAGRVFKDSDKFVPNDPHLKNQTQEWSGSGTLTKDGKVRLFYTDYSGKQYGKQTLTTAQVNMSQPNDNTLKVDGVEDYKSIFDGDGKIYQTVQQFIDEGGYDTGDNHTLRDPHYIEDNGHKYLVFEANTGTEDGYQGEDSLYNRAYYGGNNPFFQSEKKKLLEGSNKEKASLANGALGIIELNDDYTLKKVMKPLITSNTVTDEIERANIFKKDGKWYLFTDSRGSKMTIDGIGQDDVYMLGYVSNTLTGKYKPLNDTGLVLHMDLDPNDKTFTFSHFAVPQTKGDNVVITSYMTNRGFYEDNHSTFAPSFLVNIDGSKTSVVKDRVLEQGQLTVDED
B6: protein (Streptomyces coelicolor, UniProt Q9K464); chain MAAYLCAPAVIHGEHSVETREIVEEVRGRHPHAPWAPRIDGIAASTGIESRGWMLPLEAAVAPGGGGDLGAAREALVRDGFTEQDANRAIAALKAVPASQTVQERTAPAWEAVQAYGERAARGALQIAGLDVADVDCLITSNSTTPALPGLDVALANRLPLRGDTMLLPATQWACVAGTRSLALAADLVAADPDRVVLVVISEALSTTYQPADDTLESLIVRLLFADTAVAAVVTGRPRPESVLRLDAAWHHTLPGTRDLHRLETRADGTHFVMDRRGPRAVQETVTAMWEWLRVRYEDDPSSWHPDVLLAHPGGTRVLEYMEQTMPDEWPSGLLSYSRDSYTSGNRGGAAVFDILRRAHDAGQKTGSRAVLYAAAPGLTATALEGEWL
B7: TylM1 H123N (Streptomyces fradiae, UniProt P95748); chain MAHSSATAGPQADYSGEIAELYDLVHQGKGKDYHREAADLAALVRRHSPKAASLLDVACGTGMHLRHLADSFGTVEGLELSADMLAIARRRNPDAVLHHGDMRDFSLGRRFSAVTCMFSSIGNLAGQAELDAALERFAAHVLPDGVVVVEPWWFPENFTPGYVAAGTVEAGGTTVTRVSHSSREGEATRIEVHYLVAGPDRGITHHEESHRITLFTREQYERAFTAAGLSVEFMPGGPSGRGLFTGLPGAKGETR
B8: protein (UniProt A0A4Y6I0S2); chain MTFEEKPMKFDGLDIEGVAFAPSVAALGSAKPLVLGGAGDRGLEINGNYIKFTAIGIYIEDGIIPHLSSKLSGKTVLELCEKDLLFEEVIYAPFEKLVRVVFIAPLTGIQYSEKVLERISVQALYTDIKEEHKQQFLEIFKGESFPPQSSAILSFSKEGLKVAFSKGDDVPAKAVGTIENARFADAVLGTIIWRDGVSPAAKVSLAERVSKYLQLGPSDGLASVPQSK
B9: trypsin (Saccharopolyspora erythraea, UniProt Q54137); chain IVGGEDANVQDHPFTVALVTPDGQQFCGGTLAAPNKVVTAAHCTVGSQPADINVVSGRTVMSSNEGTVSKVTNVWVHPEYQDAAKGFDVSVLTLEAPVKEAPIELAKADDAGYAPDTAATILGWGNTSEGGQQADHLQKATVPVNSDDTCKQAYGEYTPDAMVCAGVPEGGVDTCQGDSGGPMVVNNKLIGVTSWGEGCARPGKPGVYARVGAYYDVLMEQINAGAVSAR
B10: enzyme (Mortierella alpina, UniProt U5Y6A8); chain MAPPHVVDEQVRRRIVVEDEIQSKKQFERNYVPMDFTIKEIRDAIPAHLFIRDTTKSILHVVKDLVTIAIVFYCATFIETLPSLALRVPAWITYWIIQGTVMVGPWILAHECGHGAFSDSKTINTIFGWVLHSALLVPYQAWAMSHSKHHKGTGSMSKDVVFIPATRSYKGLPPLEKPAAEEEVLEQEHHHHEESIFAETPIYTLGALFFVLTLGWPLYLIMNFSGHEAPHWVNHFQTVAPLYEPHQRKNIFYSNCGIVAMGSILTYLSMVFSPLTVFMYYGIPYLGVNAWIVCITYLQHTDPKVPHFRDNEWNFQRGAACTIDRSFGTIVNHLHHHIGDSHQCHHMFSQMPFYNAVEATKHLKAKLGKYYIFDDTPIAKALYRNWRECKFVEDEGDVVFYKH
B11: enzyme (Halalkalibacterium halodurans, UniProt Q9KCN8); chain MLNVTQLQEATTFIQQQIETKPTIGLILGSGLGILADEIEQPVKVPYSDIPHFPVSTVQGHAGQLVIGMLEGKQVIAMQGRFHFYEGYSLEVVTFPVRVMKALGVEQIIVTNAAGGVNESFEAGDLMIIRDHINNMAQNPLIGPNDEAFGVRFPDMSNAYSERLRTLAKEKGNTLNLKLQEGVYVANTGPVYETPAEVRMIRKLGGDAVGMSTVPEVIVARHAGLEVLGISCISNMAAGILPQPLSHDEVIETTERVRQDFLNLVKAIVKDM
UniProt Q9HJT3, sequence (whole entry, looked up): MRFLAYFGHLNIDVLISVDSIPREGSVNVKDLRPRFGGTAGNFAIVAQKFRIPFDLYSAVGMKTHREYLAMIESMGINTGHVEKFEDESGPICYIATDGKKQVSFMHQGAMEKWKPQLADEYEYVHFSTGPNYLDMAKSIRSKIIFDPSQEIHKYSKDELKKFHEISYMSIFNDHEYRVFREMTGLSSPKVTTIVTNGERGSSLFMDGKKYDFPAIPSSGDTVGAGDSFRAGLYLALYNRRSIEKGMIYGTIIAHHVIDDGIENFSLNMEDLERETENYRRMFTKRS
UniProt Q29437, sequence (whole entry, looked up): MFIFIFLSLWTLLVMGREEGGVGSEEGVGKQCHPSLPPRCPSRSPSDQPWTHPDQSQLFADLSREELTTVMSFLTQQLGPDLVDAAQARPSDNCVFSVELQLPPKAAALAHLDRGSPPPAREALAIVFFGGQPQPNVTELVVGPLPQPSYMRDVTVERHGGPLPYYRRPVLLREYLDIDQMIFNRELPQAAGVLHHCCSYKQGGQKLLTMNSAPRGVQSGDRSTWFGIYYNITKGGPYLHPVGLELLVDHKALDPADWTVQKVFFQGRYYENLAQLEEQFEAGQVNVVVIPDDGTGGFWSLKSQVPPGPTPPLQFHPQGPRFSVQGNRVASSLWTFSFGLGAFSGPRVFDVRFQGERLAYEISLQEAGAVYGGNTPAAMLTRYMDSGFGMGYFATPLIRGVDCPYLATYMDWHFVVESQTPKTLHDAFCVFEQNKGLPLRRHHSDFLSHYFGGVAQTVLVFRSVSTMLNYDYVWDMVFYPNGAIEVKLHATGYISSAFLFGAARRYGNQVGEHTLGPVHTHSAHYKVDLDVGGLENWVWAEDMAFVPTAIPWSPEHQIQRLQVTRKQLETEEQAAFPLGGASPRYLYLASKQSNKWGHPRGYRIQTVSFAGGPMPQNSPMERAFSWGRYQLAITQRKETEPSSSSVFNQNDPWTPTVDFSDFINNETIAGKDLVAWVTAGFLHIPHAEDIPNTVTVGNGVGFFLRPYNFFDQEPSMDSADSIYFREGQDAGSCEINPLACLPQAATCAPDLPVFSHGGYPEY
UniProt Q99042, sequence (whole entry, looked up): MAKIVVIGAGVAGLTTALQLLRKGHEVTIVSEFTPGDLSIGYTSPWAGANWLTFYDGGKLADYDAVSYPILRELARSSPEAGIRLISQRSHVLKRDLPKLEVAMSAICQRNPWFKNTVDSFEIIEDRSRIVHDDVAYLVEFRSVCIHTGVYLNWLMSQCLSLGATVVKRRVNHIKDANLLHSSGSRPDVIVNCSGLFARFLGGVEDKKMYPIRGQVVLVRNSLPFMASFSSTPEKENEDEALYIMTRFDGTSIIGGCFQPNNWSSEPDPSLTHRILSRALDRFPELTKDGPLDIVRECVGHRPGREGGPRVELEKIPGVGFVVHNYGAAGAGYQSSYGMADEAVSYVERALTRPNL
UniProt G1UII1, sequence (whole entry, looked up): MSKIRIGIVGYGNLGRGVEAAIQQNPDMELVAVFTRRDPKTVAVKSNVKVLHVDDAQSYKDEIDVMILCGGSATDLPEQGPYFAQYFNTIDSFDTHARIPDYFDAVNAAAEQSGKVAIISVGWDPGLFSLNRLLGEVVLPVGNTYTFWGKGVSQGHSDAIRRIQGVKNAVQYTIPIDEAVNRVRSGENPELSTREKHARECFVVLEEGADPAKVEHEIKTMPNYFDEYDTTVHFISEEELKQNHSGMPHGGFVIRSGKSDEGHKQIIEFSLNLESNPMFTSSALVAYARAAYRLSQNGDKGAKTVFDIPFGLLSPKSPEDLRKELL

Molecule | substrate | pH | temperature | notes | together with | kcat/Km [M⁻¹ s⁻¹]
B1 (ybiA) | Nc1c(N[C@@H]2O[C@H](COP(=O)(O)O)[C@@H](O)[C@H]2O)[nH]c(=O)[nH]c1=O | pH 8 | 22 °C | substrate not purified |  | 140
B2 | NC(=O)C1=CN([C@@H]2O[C@H](COP(=O)(O)OP(=O)(O)OC[C@H]3O[C@@H](n4cnc5c(N)ncnc54)[C@H](O)[C@@H]3O)[C@@H](O)[C@H]2O)C=CC1 | pH 7.5 | 37 °C | per site |  | 11000 ± 2000
B3 (estF) | CCOC(C)=O | pH 6.5 | 23 °C | apparent |  | 800
DAO1 (Trigonopsis variabilis, UniProt Q99042) | CN(C)c1ccc2nc3ccc(N(C)C)c([N+](=O)[O-])c3[s+]c2c1 | pH 8 | 22 °C | apparent |  | 3000
B4 (protein) | CC(C)=CCC/C(C)=C/COP(=O)(O)OP(=O)(O)O | pH 7.5 |  |  | GPP 1-100 µM | 11000 ± 700
Plasma amine oxidase (Bos taurus, UniProt Q29437) | CNCCOc1ccc2cc(CN)ccc2c1 | pH 7.2 | 30 °C |  |  | 1.01e+06
AphC (Rhodococcus jostii, UniProt Q0S9X1) | Oc1ccc(-c2ccccc2)cc1O | pH 8 | 25 °C | apparent | O2 | 47000
B5 (sacB Y421F) | OC[C@H]1O[C@@](CO)(O[C@H]2O[C@H](CO)[C@@H](O)[C@H](O)[C@H]2O)[C@@H](O)[C@@H]1O | pH 6.6 |  |  |  | 550
protein (Cecembia lonarensis, UniProt K1KZY4) | C[C@@H]1O[C@@H](Oc2ccc([N+](=O)[O-])cc2)[C@@H](O)[C@H](O)[C@H]1O | pH 5.5 | 35 °C |  |  | 7350 ± 470
B6 (protein) | CC(=O)CC(=O)SCCNC(=O)CCNC(=O)[C@H](O)C(C)(C)COP(=O)(O)OP(=O)(O)OC[C@H]1O[C@@H](n2cnc3c(N)ncnc32)[C@H](O)[C@@H]1OP(=O)(O)O | pH 7.8 | 30 °C | NaCl 150 mM | methylmalonyl-CoA 1.0 mM | 645
B7 (TylM1 H123N) | Cc1cn([C@H]2C[C@H](O)[C@@H](COP(=O)(O)OP(=O)(O)O[C@H]3O[C@H](C)[C@@H](O)[C@H](N)[C@H]3O)O2)c(=O)[nH]c1=O |  | 25 °C |  | SAM | 14 ± 1
B8 (protein) | O=C(/C=C/c1ccc(O)cc1)c1c(O)cc(O)cc1O |  |  |  |  | 1.7e+06
TaNK (Thermoplasma acidophilum, UniProt Q9HJT3) | Nc1nc2c(ncn2[C@@H]2O[C@H](COP(=O)(O)OP(=O)(O)OP(=O)(O)O)[C@@H](O)[C@H]2O)c(=O)[nH]1 | pH 8 | 22 °C | apparent | inosine, Mg2+ | 1440 ± 84
B9 (trypsin) | NCCCC[C@H](NC(=O)c1ccccc1)C(=O)Nc1ccc([N+](=O)[O-])cc1 | pH 8 | 25 °C |  |  | 1530 ± 120
B10 (enzyme) | CCCCC/C=C\C/C=C\C/C=C\C/C=C\CCCC(=O)SCCNC(=O)CCNC(=O)[C@H](O)C(C)(C)COP(=O)(O)OP(=O)(O)OC[C@H]1O[C@@H](n2cnc3c(N)ncnc32)[C@H](O)[C@@H]1OP(=O)(O)O | pH 7.5 | 28 °C |  |  | 333
B11 (enzyme) | OC[C@H]1O[C@@H](n2cnc3c(O)ncnc32)[C@H](O)[C@@H]1O |  |  |  |  | 1.2e+08
ddh (Ureibacillus thermosphaericus, UniProt G1UII1) | O=C(O)C(=O)Cc1ccccc1 | pH 9 | 30 °C | reductive amination | NH4Cl 200 mM, NADPH 0.5 mM | 59 ± 6

Excerpt of the above:
Molecule | substrate | pH | temperature | notes | together with | kcat/Km [M⁻¹ s⁻¹]
B11 (enzyme) | OC[C@H]1O[C@@H](n2cnc3c(O)ncnc32)[C@H](O)[C@@H]1O |  |  |  |  | 1.2e+08
B4 (protein) | CC(C)=CCC/C(C)=C/COP(=O)(O)OP(=O)(O)O | pH 7.5 |  |  | GPP 1-100 µM | 11000 ± 700
